# Measured values from different studies.
# Parts stem from different laboratories: compare values within a part only. Positions count from the first letter of the parent shown.
# Chain of UniProt P14616 (whole entry, looked up): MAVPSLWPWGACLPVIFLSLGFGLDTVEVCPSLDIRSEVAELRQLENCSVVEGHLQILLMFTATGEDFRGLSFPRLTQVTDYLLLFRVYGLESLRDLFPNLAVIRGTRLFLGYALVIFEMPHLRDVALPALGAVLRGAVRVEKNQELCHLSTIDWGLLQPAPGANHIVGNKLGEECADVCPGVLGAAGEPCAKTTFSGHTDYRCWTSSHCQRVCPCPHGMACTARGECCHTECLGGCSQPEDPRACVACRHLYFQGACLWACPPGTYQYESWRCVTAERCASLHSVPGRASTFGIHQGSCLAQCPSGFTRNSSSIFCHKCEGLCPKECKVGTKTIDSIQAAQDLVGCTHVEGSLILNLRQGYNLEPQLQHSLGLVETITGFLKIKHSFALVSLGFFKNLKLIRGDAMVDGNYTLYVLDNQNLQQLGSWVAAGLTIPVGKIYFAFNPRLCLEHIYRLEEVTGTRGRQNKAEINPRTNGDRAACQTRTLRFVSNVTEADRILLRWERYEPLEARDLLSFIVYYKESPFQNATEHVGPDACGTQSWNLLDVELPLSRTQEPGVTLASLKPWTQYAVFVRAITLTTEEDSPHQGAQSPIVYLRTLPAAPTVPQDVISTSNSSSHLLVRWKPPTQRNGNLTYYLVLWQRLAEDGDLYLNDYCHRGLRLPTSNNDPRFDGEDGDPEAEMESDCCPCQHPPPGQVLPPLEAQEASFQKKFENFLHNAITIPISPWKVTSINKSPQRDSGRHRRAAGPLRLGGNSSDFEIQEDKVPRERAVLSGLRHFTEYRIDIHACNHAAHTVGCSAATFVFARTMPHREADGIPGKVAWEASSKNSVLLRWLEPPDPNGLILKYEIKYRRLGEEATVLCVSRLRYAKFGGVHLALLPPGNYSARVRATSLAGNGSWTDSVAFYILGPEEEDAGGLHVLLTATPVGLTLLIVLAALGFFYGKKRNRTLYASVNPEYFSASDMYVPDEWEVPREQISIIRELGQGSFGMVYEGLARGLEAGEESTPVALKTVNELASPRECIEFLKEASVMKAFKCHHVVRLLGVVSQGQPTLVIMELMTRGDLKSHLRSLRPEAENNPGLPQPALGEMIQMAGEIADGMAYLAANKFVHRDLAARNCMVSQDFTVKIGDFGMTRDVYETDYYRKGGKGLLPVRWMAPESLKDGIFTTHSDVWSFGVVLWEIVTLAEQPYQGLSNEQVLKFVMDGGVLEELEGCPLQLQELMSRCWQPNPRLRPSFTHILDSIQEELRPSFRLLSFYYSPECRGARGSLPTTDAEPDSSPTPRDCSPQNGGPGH
# Chain of UniProt Q8TD08 (whole entry, looked up): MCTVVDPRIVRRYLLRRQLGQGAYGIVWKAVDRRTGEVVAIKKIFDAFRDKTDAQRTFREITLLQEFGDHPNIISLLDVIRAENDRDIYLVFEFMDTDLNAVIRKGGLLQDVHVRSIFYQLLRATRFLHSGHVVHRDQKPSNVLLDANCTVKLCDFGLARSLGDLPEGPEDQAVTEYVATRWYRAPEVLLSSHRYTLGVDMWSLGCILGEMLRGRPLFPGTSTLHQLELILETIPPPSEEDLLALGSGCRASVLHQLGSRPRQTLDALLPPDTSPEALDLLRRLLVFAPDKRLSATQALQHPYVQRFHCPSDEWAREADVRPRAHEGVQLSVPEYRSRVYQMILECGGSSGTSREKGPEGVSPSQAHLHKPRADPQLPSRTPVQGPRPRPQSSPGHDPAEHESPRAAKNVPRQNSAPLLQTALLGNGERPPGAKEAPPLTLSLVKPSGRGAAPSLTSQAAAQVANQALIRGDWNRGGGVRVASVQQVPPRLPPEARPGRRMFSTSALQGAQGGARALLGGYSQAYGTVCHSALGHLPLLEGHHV
# Chain of UniProt Q00526 (whole entry, looked up): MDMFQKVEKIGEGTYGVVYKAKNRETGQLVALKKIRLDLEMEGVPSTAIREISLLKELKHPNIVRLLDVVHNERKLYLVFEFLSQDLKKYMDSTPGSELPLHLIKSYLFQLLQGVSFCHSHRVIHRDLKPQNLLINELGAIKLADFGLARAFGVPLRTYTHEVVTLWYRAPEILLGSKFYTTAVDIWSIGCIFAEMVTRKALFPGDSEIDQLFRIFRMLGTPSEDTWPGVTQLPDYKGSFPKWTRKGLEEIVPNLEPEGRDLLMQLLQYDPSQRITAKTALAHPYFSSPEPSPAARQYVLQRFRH
# Chain of UniProt Q8N752 (whole entry, looked up): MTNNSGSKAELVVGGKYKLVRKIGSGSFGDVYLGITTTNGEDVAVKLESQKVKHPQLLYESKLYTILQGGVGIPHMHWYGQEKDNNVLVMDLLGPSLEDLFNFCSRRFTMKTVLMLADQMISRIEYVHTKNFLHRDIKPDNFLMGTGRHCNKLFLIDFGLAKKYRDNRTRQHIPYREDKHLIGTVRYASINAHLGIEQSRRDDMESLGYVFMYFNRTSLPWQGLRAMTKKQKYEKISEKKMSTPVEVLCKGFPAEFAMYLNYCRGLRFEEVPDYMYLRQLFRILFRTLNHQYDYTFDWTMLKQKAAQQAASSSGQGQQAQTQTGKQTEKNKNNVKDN

# Block 1 — read-out: cell-free assay; method: competition with immobilised ligand; tested at: 1 µM
# SMILES: Cn1cncc1[C@@](O)(COc1ccc(C#N)cc1-c1ccc(OC(F)(F)F)cc1)c1ccc(C#N)cc1
target,remaining binding [%]
"EGFR (Homo sapiens, UniProt P00533, L858R)",100
"CDK3 (Homo sapiens, UniProt Q00526)",100
"MAPK15 (Homo sapiens, UniProt Q8TD08)",100
"CSNK1A1L (Homo sapiens, UniProt Q8N752)",100
"INSRR (Homo sapiens, UniProt P14616)",96

# Block 2 — target: CCNB1, cyclin fold, Cln2 fusion (human); method: yeast growth competition, sequencing; matrix: yeast; setting: strong parent motif; relative to: not given; direction: higher = stronger binding
# Parent: viral docking peptide; YKVKRRLVFGADD; partner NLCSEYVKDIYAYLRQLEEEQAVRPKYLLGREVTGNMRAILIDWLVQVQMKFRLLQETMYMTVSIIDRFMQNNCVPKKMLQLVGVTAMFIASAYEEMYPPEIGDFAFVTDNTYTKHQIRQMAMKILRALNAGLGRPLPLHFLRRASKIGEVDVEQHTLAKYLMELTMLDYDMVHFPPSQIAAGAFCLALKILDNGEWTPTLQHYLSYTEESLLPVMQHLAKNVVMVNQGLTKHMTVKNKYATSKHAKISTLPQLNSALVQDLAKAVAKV
Change,normalised enrichment score
YKVKRRLCFGADD [V8C],3.5
YKVKRELVFGADD [R6E],1.43
YKVKRRLVFGSDD [A11S],4.03
YKVKRRIVFGADD [L7I],0.919
YKVKRRLSFGADD [V8S],5.59
YKVKRRLVFIADD [G10I],3.25
YKVKRRLVFGEDD [A11E],4.74
YKVKRRLVFMADD [G10M],3.14
YEVKRRLVFGADD [K2E],4.71
YKVKDRLVFGADD [R5D],0.402
YKVKRRHVFGADD [L7H],0.277
YKTKRRLVFGADD [V3T],1.45
YKVKRALVFGADD [R6A],1.54
YKVYRRLVFGADD [K4Y],2.21

# Block 3 — target: tungstate, free oxyanion; method: microfluidic competitive inhibition; matrix: in vitro, cell-free expressed; tested at: not given; direction: lower = stronger binding
# Setting: derived from inhibition constants, unchanged parent 2230 nM
# Parent: PafA, mature enzyme, eGFP fusion (Elizabethkingia meningoseptica, UniProt Q9KJX5); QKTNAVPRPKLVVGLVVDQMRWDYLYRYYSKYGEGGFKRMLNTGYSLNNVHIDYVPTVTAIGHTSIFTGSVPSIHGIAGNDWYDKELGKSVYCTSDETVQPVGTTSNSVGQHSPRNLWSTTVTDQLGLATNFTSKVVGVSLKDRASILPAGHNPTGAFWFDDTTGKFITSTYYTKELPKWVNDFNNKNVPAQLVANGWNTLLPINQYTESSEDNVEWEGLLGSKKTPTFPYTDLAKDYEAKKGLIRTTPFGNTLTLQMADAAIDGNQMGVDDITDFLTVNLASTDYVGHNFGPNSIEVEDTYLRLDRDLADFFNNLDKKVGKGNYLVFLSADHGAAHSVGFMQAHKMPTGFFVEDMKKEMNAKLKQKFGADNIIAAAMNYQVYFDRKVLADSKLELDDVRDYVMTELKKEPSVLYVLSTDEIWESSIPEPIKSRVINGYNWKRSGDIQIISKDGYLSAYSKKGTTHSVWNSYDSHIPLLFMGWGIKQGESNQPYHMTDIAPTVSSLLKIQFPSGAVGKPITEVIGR
Change,oxyanion analog dissociation constant
F352G,1.87 µM
N49G,1.88 µM
L201V,2.32 µM
S338V,2.23 µM
Y207G,1.4 µM
G321A,2.04 µM
Y172V,1.98 µM
R526G,2.36 µM
P493G,2.18 µM
S444G,1.6 µM
F184G,1.2 µM
K462V,2.53 µM
G251V,1.73 µM
E406G,2.3 µM
Y173V,1.83 µM
S73V,978 nM
G323A,2.29 µM
G269A,1.9 µM
K89V,2.5 µM
T255G,3.93 µM
T278V,1.4 µM
W217G,475 nM
V102G,671 nM
Y29V,1.89 µM
P512G,1.8 µM

# Block 4 — method: RNA Bind-n-Seq; form: RNA; matrix: in vitro; tested at: 1 µM; setting: whole 134-nt RNA, ends assumed; with: 150 mM KCl; relative to: input library; direction: higher = stronger binding
# Target: Ras GTPase-activating protein-binding protein 1, RRM domain (G3BP1, Homo sapiens, UniProt Q13283)
# Chain of UniProt Q13283 (whole entry, looked up): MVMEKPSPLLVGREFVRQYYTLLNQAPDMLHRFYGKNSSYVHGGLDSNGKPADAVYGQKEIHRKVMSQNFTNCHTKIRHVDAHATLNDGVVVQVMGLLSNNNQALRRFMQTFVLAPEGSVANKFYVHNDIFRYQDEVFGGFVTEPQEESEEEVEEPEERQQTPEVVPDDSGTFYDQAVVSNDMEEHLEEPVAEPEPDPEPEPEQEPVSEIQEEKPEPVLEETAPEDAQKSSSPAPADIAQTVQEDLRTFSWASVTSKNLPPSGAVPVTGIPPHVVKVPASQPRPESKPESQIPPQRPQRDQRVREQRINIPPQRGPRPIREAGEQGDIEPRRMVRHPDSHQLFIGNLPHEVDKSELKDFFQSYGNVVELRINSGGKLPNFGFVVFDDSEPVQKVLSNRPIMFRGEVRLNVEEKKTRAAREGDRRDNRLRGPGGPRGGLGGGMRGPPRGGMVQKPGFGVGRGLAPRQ
# Constant ends, left off below: GGGAGUUCUACAGUCCGACGAUC … UGGAAUUCUCGGGUGUCAAGG
Strand,log2 enrichment
UUUAGCCUGUGGAAUGAUAGCAGUAGGGUCCUGCAAUGGAGAUGUAACUUCCACUAUCCUUCAGACCAUCAUGGAGAAGUCAGAGACUGA,-0.128
CACAGACAACACGCACCCACACAGACACAGAGGGAAGGGGUUGGGAUCGGGACAGGGUGCACAGCAGGGCGGGGUAGGACCCCAGCCCCU,-0.0452
GUCCUGUGCUACACAUCGUAUGUACCGAAUCAAAGUGUGUGUGUGUGUGUGUGUGUAAAAAAGUAUUAUGUUACGCCGUUCGGAUCUGCA,0.0394
CCUGUGCUACACAUCGUAUGUACCGAAUCGGGGAAAAAGGGGAAAGGGGAAAAAAAGGGGAAAGUAUUAUGUUACGCCGUUCGGAUCUGC,0.444
UAACUUUAGAGGAGGAUCUGAUGGAUAUGGCAGUGGACGUGGAUUUGGGGAUGGCUAUAAUGGGUAUGGAGGAGGACCUGAAGGUGGCAA,-0.442
UGGGAGGUGGAUUUUGUUUAUUUUUUUAGCUCAUUUCCAGGGGUGGGAAUUUUUUUUUAAUGUGUGUCAUGAAUAAAGUUGUUUUUGAAA,2.1
CCUGUGCUACACAUCGUAUGUACCGAAUCGGGAAAAAAAGGGUUUUUGGGUUUUUUUGGGAAAGUAUUAUGUUACGCCGUUCGGAUCUGC,-0.198
GCAGGAAGUAAAAACAAAUGGAAAUGCUUCGGAUAGUGGCAGGGGUGGUGGUUGCUAAGGAAAGGGUGGGAUGGGAGUGGGUAAAGAGUU,0.91

# For quick reference, copied from above (block 3):
Change,oxyanion analog dissociation constant
Y173V,1.83 µM
S73V,978 nM
G323A,2.29 µM
G269A,1.9 µM
K89V,2.5 µM
T255G,3.93 µM
T278V,1.4 µM
W217G,475 nM
